Measurements from different studies.
Lines come from different studies, so protocols differ. Values joined by “and” are separate records of one study, mostly repeats; a detail may differ.
LCK: Tyrosine-protein kinase Lck (LCK, Homo sapiens, UniProt P06239)

| SMILES | target | test | conditions | how to read | endpoint | result |
| --- | --- | --- | --- | --- | --- | --- |
| CCN(CC)CCOc1ccc(-c2nnn(Cc3ccc(OC)cc3)c2N)cc1 | LCK | enzyme activity | 10 µM | – | inhibition | 0.01% |
| CCc1nnc(-c2c(OC)cc(-c3cnc4cc(-c5cnn(C)c5)ccn34)cc2OC)o1 | LCK | – | 10 µM | – | inhibition of specific binding | 55% |
| COc1ccc(F)cc1S(=O)(=O)Nc1cnc2c(c1)C(=O)NCCO2 | LCK | enzyme activity, inhibitor | 10 µM | – | inhibition | -21% |
| N[C@H](C(=O)N1CCCC1)C1CCN(c2nccc3c(-c4ncc(Cl)cc4Cl)cccc23)CC1 | LCK | enzyme activity, inhibitor | 10 µM | – | inhibition | 16% |
| CS(C)(=O)=Nc1ccc(-c2ccc(-c3nc4cc(O[C@@H]5CO[C@H]6[C@@H]5OC[C@H]6O)[nH]c4cc3F)cc2)cc1 | Tyrosine-protein kinase Lck, phosphorylated (LCK, Homo sapiens, UniProt P06239) | enzyme activity, inhibitor | 10 µM | – | inhibition | -8% |
| C/C(=N\OCCCN1CCCCC1)c1ccc(C(F)(F)F)cc1 | LCK | antagonist, TR-FRET | 10 µM | – | inhibition | 25.8% |
| CCCO[C@H]1[C@H](O)[C@@H](N)[C@@H](O[C@H]2[C@H](O[C@@H]3O[C@H](CO)[C@@H](O[C@H]4O[C@@H](CN)[C@@H](O)[C@H](O)[C@H]4N)[C@H]3O)[C@@H](O)[C@H](N)C[C@@H]2N)O[C@@H]1CO | LCK | cell-free assay | 10 µM | – | remaining signal | 35% |
| Cc1cc(-c2ccc3ccccc3c2)nnc1NCCN1CCN(C)CC1 | LCK | enzyme activity | concentration not given | – | inhibition | negative |
| CC(C)[C@H]1NC(=O)C[C@H]2/C=C/CCSSC[C@@H](NC1=O)C(=O)N[C@H](Cc1cccc3ccccc13)C(=O)NCC(=O)O2 | LCK | enzyme activity, inhibitor | 10 µM | – | inhibition | -5.9% |
| Cc1cc(Nc2nc(C[C@@]3(C(=O)O)CCN(Cc4cccc(Cl)c4F)[C@H](C)C3)cc(C)c2F)[nH]n1 | LCK | enzyme activity, inhibitor | 10 µM | – | inhibition | 49.2% |
| C[C@H](NCc1ccc(-c2ccc(C(F)(F)F)cc2)cc1)C(N)=O | LCK | kinase activity, SafetyScreen panel | 1 µM, together with: 200 µg/mL poly(Glu:Tyr) | – | inhibition | 0% |
| O=C(O)c1ccc(-c2nc(-c3ccccc3Cl)c3sccn23)cc1 | LCK | radioligand binding, safety screen panel | 10 µM | reference: control | specific binding | 105% and 113% |
| O=C1NC(=O)c2c1c1cc(F)c[n+]3c1c1c2c2cc(O)ccc2[n]1[Ru-4]312([N]=C=S)[S+]3CC[S+]1CC[S+]2CC3 (stereo not shown) | LCK | enzyme activity | 100 nM, human enzyme, together with: 10 µM ATP | reference: untreated | remaining activity | 35% |

Excerpt of the above:
| SMILES | target | test | conditions | how to read | endpoint | result |
| --- | --- | --- | --- | --- | --- | --- |
| C/C(=N\OCCCN1CCCCC1)c1ccc(C(F)(F)F)cc1 | LCK | antagonist, TR-FRET | 10 µM | – | inhibition | 25.8% |
